Published values from different studies.
Every numbered part comes from another study and shows a few of its results, in no order. Values joined by “and” are separate records of one study, mostly repeats; a detail may differ.
UniProt P46934, sequence (whole entry, looked up): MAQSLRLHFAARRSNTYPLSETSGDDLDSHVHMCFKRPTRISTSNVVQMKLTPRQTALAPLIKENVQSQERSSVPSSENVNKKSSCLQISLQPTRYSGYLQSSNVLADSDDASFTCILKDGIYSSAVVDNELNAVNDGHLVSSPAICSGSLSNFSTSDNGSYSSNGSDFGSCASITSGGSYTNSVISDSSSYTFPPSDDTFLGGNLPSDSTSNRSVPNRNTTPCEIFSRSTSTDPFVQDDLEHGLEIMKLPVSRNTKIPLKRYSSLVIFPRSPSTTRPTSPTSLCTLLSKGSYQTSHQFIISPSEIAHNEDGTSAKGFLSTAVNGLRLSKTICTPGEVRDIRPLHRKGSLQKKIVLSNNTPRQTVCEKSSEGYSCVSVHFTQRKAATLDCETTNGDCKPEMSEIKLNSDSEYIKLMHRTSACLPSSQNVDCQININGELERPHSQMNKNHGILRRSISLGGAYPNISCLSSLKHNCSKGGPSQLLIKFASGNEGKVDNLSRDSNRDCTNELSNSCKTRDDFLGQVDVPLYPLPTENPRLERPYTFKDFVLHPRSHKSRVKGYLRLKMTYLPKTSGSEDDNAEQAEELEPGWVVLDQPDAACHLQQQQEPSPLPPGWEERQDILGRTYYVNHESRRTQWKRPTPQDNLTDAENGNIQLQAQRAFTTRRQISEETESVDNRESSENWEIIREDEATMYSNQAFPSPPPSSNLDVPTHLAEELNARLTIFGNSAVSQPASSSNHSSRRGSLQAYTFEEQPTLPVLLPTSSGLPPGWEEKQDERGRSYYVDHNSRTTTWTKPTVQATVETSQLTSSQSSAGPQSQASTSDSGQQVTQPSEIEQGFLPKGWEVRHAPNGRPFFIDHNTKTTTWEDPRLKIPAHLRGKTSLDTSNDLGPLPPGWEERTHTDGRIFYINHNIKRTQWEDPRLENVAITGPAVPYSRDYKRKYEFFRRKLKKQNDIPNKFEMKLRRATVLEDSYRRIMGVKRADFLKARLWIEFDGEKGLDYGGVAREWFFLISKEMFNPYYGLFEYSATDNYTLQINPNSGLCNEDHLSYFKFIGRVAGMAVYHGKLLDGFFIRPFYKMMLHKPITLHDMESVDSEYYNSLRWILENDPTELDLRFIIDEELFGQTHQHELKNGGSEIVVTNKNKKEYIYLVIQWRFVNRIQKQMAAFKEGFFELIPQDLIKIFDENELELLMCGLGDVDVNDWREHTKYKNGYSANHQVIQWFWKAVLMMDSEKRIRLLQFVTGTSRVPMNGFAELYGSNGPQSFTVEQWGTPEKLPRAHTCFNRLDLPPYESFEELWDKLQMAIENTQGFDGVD

Series 1
SMILES: Cn1cc(-c2cccc(CN3CCC4(CC3)COc3c4ccc4c3CN([C@H]3CCC(=O)NC3=O)C4=O)c2)cn1
| test system | conditions | MRT(0-t) |
| --- | --- | --- |
| cynomolgus monkey | oral, 3 mg/kg | 7.67 h and 8.1 h and 8.32 h |
| rat, plasma | oral, 2.98 mg/kg | 4.59 h |
| cynomolgus monkey | intravenous, 1 mg/kg | 5.51 h and 4.45 h and 4.31 h |
| rat, plasma | intravenous, 1.02 mg/kg | 1.96 h |
| rat | oral, 3 mg/kg, approximate dose | 5.43 h and 5.01 h and 3.33 h |

Further values, each from its own experiment
| SMILES | target or system | assay | test system | conditions | how to read | quantity | result |
| --- | --- | --- | --- | --- | --- | --- | --- |
| C#CCN1C(=O)C(O)(C(=O)O)Oc2cc(F)ccc21 (stereo not shown) | Arabidopsis thaliana | root length | Col-0 | 25.0 µg/mL, 7 days, seed germination, dark |  | inhibition | 69.6% |
| N=C(N)NCCCCCCN1CCC23c4c5ccc(O)c4OC2c2nc4ccccc4cc2CC3(O)C1C5 (stereo not shown) |  | modified Racine scale | C57BL/6J mice, male | intracerebroventricular, 100 nmol, 5 min | direction not given | seizure score | 0 |
| O=[N+]([O-])c1ccc(C2=NOC3(NC(c4ccccc4)=NO3)N2c2ccccc2)cc1 (stereo not shown) | Plasmodium falciparum |  | Dd2 |  | baseline: IC50 Dd2 over 3D7 | resistance index | < 5 and 4.2 |
| CCOC(=O)/C=C/CN(CCCCN1c2ccccc2CCc2ccc(Cl)cc21)Cc1ccccc1.O=C(O)/C=C\C(=O)O | E3 ubiquitin-protein ligase NEDD4, HECT domain (Homo sapiens, UniProt P46934) | enzyme activity, inhibitor, Ub-TR-FRET | HECT domain | 0.01524 µM | higher = more chain formation | ubiquitin chain formation AUC | 95600 a.u. and 105000 a.u. and 101000 a.u. and 93100 a.u. and 97100 a.u. and 102000 a.u. |
| CC(C)(C)n1nc(-c2ccc(Cl)cc2)c2c(N)ncnc21 | L929 | necroptosis protection, CCK-8 |  | 10 µM, with: TNF-α-induced |  | viability | 65.6% |

Some of these lines once more (series 1):
| test system | conditions | MRT(0-t) |
| --- | --- | --- |
| rat, plasma | intravenous, 1.02 mg/kg | 1.96 h |
